{"data": "Measured values pooled from the literature", "note": "A part holds a random share of what one study measured. Substitutions count along the parent as printed."}
{"data": "Block 1", "target": "Interferon regulatory factor 7, full length, phosphomimetic (IRF7, Homo sapiens, UniProt Q92985, residues 1-503, S101K/S471D/S472D/S475D/S476D/S477D/S483D/S484D/S487D)", "method": "protein-binding microarray", "molecule type": "double-stranded DNA, one strand shown", "sample": "in vitro", "tested at": "250 nM", "notes": "60-bp whole probe", "together with": "salmon DNA 0.4 mg/ml", "relative to": "random background probes", "reading": "higher = stronger binding", "all sequences stand within": "GCCTAGCAC … GTCTTGATTCGCTTGACGCTGCTG", "sequence of UniProt Q92985 (whole entry, unmodified, looked up)": "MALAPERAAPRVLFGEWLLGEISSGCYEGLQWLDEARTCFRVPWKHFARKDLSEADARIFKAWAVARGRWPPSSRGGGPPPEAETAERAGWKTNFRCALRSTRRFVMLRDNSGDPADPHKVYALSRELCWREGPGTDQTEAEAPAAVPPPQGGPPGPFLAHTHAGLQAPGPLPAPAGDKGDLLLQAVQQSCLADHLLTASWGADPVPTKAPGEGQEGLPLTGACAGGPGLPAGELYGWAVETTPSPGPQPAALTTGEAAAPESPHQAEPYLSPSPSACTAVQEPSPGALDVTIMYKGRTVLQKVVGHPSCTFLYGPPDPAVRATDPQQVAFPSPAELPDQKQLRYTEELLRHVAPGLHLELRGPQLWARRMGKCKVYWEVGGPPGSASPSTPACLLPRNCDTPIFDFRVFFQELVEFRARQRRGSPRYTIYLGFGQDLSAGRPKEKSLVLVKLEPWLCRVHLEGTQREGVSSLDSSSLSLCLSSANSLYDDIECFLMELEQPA"}
{"Oligonucleotide": "TTAGGTATCGGGGTTCGGTTAGTGCTA", "log fluorescence": "0.911 z-score"}
{"Oligonucleotide": "AACGGACTGGACACTGGGGACGTGCTA", "log fluorescence": "-0.353 z-score"}
{"Oligonucleotide": "TTTGGTATCGACTATCGGTTAGTGCTA", "log fluorescence": "0.281 z-score"}
{"Oligonucleotide": "GACGGTCTCCTTGTCCTGACGTGCTAG", "log fluorescence": "-0.318 z-score"}
{"Oligonucleotide": "CAGCTTTTATCCCTGACAGAGTGCTAG", "log fluorescence": "0.0536 z-score"}
{"Oligonucleotide": "TTAGGACGGGACACTGGGTTAGTGCTA", "log fluorescence": "-0.324 z-score"}
{"Oligonucleotide": "TCATTTTTTTTTTCTGAACTGTGCTAG", "log fluorescence": "1.24 z-score"}
{"Oligonucleotide": "GACGGTATCCTTATCCCGACGTGCTAG", "log fluorescence": "0.301 z-score"}
{"data": "Block 2", "partner": "H2BC14 (Homo sapiens, UniProt Q99879)", "method": "cross-linking MS", "notes": "hits only"}
{"Molecule": "H3-4 (Homo sapiens, UniProt Q16695)", "interaction screen": "cross-linked"}
{"Molecule": "H2BC15 (Homo sapiens, UniProt Q99877)", "interaction screen": "cross-linked"}
{"Molecule": "H2AC18 (Homo sapiens, UniProt Q6FI13)", "interaction screen": "cross-linked"}
{"Molecule": "H2AC20 (Homo sapiens, UniProt Q16777)", "interaction screen": "cross-linked"}
{"data": "Block 3", "Change": "I133Q", "target": "ABI1, truncated, D143A, DHFR fusion (Arabidopsis thaliana)", "method": "DHFR PCA, deep sequencing", "sample": "yeast", "notes": "methotrexate growth selection, single substitutions", "relative to": "wild-type fitted maximum", "reading": "higher = stronger binding", "starting sequence": "PYL1, truncated, DHFR fusion (Arabidopsis thaliana); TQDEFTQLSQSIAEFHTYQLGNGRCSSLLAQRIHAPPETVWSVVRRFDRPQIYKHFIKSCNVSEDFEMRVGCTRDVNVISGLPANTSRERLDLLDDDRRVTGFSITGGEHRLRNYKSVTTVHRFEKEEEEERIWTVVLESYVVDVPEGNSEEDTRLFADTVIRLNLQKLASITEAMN; partner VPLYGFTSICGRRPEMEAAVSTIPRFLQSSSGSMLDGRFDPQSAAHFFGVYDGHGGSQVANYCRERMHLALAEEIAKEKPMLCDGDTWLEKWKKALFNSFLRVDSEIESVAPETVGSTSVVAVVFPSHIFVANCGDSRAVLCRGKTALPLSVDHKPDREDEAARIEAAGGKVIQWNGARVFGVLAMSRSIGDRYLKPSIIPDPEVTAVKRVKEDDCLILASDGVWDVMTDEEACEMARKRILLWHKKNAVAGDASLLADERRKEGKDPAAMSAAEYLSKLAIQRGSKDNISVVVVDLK"}
{"together with": "(+)-ABA 0.032 µM", "relative binding score [%]": 38.7}
{"together with": "(+)-ABA 0 µM", "relative binding score [%]": 32.4}
{"together with": "(+)-ABA 58 µM", "relative binding score [%]": 100}
{"together with": "(+)-ABA 4.8 µM", "relative binding score [%]": 84.3}
{"together with": "(+)-ABA 200 µM", "relative binding score [%]": 102}
{"together with": "(+)-ABA 0.11 µM", "relative binding score [%]": 40.7}
{"data": "Further values, each from its own experiment", "starting sequence": "PafA, mature enzyme, eGFP fusion (Elizabethkingia meningoseptica, UniProt Q9KJX5); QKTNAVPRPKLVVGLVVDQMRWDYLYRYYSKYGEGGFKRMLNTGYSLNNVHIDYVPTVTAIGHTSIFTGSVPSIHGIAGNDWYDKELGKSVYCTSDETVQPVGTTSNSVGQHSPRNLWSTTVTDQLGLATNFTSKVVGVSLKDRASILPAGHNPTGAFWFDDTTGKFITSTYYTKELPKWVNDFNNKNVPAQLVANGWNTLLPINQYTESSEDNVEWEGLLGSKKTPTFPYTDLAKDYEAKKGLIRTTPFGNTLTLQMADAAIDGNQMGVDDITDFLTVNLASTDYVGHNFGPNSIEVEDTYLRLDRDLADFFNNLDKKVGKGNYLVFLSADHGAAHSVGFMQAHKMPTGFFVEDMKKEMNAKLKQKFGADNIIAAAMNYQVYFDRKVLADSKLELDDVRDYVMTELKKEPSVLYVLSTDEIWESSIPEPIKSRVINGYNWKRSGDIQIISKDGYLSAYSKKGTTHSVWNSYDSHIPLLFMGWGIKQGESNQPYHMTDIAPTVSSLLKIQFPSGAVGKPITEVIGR"}
{"Change": "S338V", "target": "vanadate, free oxyanion", "assay": "microfluidic competitive inhibition", "system": "in vitro, cell-free expressed", "setting": "not given, derived from inhibition constants, unchanged parent 676 nM", "scale": "lower = stronger binding", "endpoint": "oxyanion analog dissociation constant", "result": "0.735 µM"}
